Results collected from several papers.
Parts stem from different laboratories: compare values within a part only.

Block 1
Target: RNA binding protein fox-1 homolog 2, RRM domain, GST-SBP tag (RBFOX2, Homo sapiens, UniProt O43251-10, residues 100-194)
Technique: RNA Bind-n-Seq
Molecule type: RNA
Medium: in vitro
Tested at: 365 nM
Setting: natural RNA segment, single round, ends assumed
Relative to: no-protein control
Reading: higher = stronger binding
Constant ends, left off below: GGGAGUUCUACAGUCCGACGAUC … UGGAAUUCUCGGGUGCCAA
Construct (chain): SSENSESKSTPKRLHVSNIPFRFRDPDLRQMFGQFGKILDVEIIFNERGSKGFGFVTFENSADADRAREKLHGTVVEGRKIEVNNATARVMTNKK
Oligonucleotide | RBNS enrichment (R)
CUACAGCUGCCCCAUAACCCGUGGCUUAUCCCUGGCACGUGGGGCCACACCCCACGCCCCCUGGAUAGGCAACACUGUCCUGCUCCAGCCUGUGCUGAAAUGAACUGUAC | 0.178
GAAGUUAUGUGUGAAUGUUGUCAAGUCCUGAAGUCCUAUGAUGCACUGUGGCCCUAGAAAACGAAGAUGAAGCCUCCACUGACCACUGUGUCCUCUCUGACUUGGCCAGC | 1.46
GCCUCAGUUUGCCAUCUAUGAAAUGAGGUGGACCCCUCUCCAUAGCCCUUGGGUGCCAGCUCAGUGGGUGUGGGGAUCACAUGAGGUGGCUCAUGAGGACACACUCUGGA | 0.513
GACGCAGACCCCAGCAGGUUCAGUCCCGUGCUGCCACCAGCUGUCCAGCUGGGUGUCUGGAGGGAAGAGGGCAGAGGAGGGUCAUGUCCCUUCAGCUGGGGGAGGGGCCC | 0.562
UUGGAGAUGUCAGGGUCCAUAAGAUGCUUUUUUAGUCUUCAGAAUACCGAGCUACUGGUCCUAAGAUGUUUCAGACUUAAAGCAAAUGCAUGUGUUACACCCAUCCCGUU | 7
AACGUGGUCAUCUGUGCCCGUGACGUCACCUGUGCCCGUGCGUGGCGUCCCCGUCUCCGUUGGGGCCAUUAGAAUGAGGCAGACACCAGGCCACUCUAGAAGCCGAGCCG | 0.338

Block 2
Target: Interferon regulatory factor 5, full length, phosphomimetic (IRF5, Homo sapiens, UniProt Q13568-2, residues 1-514, K96S/S451D/S453D/S456D/S462D)
Technique: protein-binding microarray
Molecule type: double-stranded DNA, one strand shown
Medium: in vitro
Tested at: 250 nM
Setting: 60-bp whole probe
With: salmon DNA 0.4 mg/ml
Relative to: random background probes
Reading: higher = stronger binding
Constant ends, left off below: GCCTAGCAC … GTCTTGATTCGCTTGACGCTGCTG
Oligonucleotide | log fluorescence [z-score]
GACGGTCTCATTTTCCTGACGTGCTAG | 0.401
GACGGACTGCTTTTCCTGAGGTGCTAG | -0.303
GACGGACTGGGGACTGGCGACGTGCTA | -1.15
TTAGGTATCGGGTTTCGGTTAGTGCTA | 8.07
TCACTTCTCTAACCTCTCACTGTGCTA | 0.527

Block 3
Target: Ras GTPase-activating protein-binding protein 1, RRM domain (G3BP1, Homo sapiens, UniProt Q13283)
UniProt Q13283, sequence (whole entry, looked up): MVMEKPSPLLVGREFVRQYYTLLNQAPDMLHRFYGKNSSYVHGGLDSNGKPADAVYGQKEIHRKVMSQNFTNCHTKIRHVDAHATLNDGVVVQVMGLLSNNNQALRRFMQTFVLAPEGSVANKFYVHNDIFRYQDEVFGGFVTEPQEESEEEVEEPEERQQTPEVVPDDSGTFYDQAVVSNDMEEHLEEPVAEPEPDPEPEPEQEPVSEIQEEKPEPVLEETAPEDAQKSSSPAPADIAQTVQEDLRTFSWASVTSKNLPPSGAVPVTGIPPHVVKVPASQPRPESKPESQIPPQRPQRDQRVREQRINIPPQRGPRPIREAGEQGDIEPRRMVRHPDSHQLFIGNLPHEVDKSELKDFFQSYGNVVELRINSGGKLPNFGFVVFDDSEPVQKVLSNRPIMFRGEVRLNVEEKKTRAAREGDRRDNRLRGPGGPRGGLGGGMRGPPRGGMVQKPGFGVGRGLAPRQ
Technique: RNA Bind-n-Seq
Molecule type: RNA
Medium: in vitro
Tested at: 1 µM
Setting: whole 134-nt RNA, ends assumed
With: 150 mM KCl
Relative to: input library
Reading: higher = stronger binding
Oligonucleotide | log2 enrichment
GGGAGUUCUACAGUCCGACGAUCGUCCUGUGCUACACAUCGUAUGUACCGAAUCGGUUUUUGGGGUUUUUGGGGUUUUUGGAAAGUAUUAUGUUACGCCGUUCGGAUCUGCACUGGAAUUCUCGGGUGUCAAGG | -0.244
GGGAGUUCUACAGUCCGACGAUCAGUCCUGUGCUACACAUCGUAUGUACCGAAUCGGAAAAAAAGGUUUUUGGUUUUUGGAAAGUAUUAUGUUACGCCGUUCGGAUCUGCACUUGGAAUUCUCGGGUGUCAAGG | -0.33
GGGAGUUCUACAGUCCGACGAUCCACAGACAACACGCACCCACACAGACACAGAGGGAAGGGGUUGGGAUGGGGACAGGGUGCACAGCAAGGCGGGGUAGGACCCCAGCCCCUUGGAAUUCUCGGGUGUCAAGG | 0.0375
GGGAGUUCUACAGUCCGACGAUCGGGUCUGUUGCAAAUAAAUUCUAUGUUCACAAUGAUAUCUUCAGAUACCAAGAUGAGGUCUUUGGUGGGUUUGUCACUGAGCCUCAGGAGUGGAAUUCUCGGGUGUCAAGG | -0.24

Mixed results
Substance | target | test | system | conditions | scale | endpoint | value
PhoQ, residues 284 288 289 292 302 303 MLMVEA | PhoP, residues 12 14 15 18 19 IFFTR (Escherichia coli, UniProt P23836) | Sort-seq, measured: YFP reporter | E. coli | PhoQ-PhoP variant library, with: 10 µM Mg2+ | relative to: high Mg2+ state, higher = stronger signaling | fold induction | 0.819

Some of these lines once more (block 1):
Oligonucleotide | RBNS enrichment (R)
GACGCAGACCCCAGCAGGUUCAGUCCCGUGCUGCCACCAGCUGUCCAGCUGGGUGUCUGGAGGGAAGAGGGCAGAGGAGGGUCAUGUCCCUUCAGCUGGGGGAGGGGCCC | 0.562
UUGGAGAUGUCAGGGUCCAUAAGAUGCUUUUUUAGUCUUCAGAAUACCGAGCUACUGGUCCUAAGAUGUUUCAGACUUAAAGCAAAUGCAUGUGUUACACCCAUCCCGUU | 7
